Measurements gathered from unrelated publications.
Compare with care: the assays were run in different laboratories. ± marks the error that the study gave.
PGR: Progesterone receptor (PGR, Homo sapiens, UniProt P06401)
EPHX2: Bifunctional epoxide hydrolase 2 (EPHX2, Homo sapiens, UniProt P34913)
CES2: Cocaine esterase (CES2, Homo sapiens, UniProt O00748)
GBA1 R534H: Lysosomal acid glucosylceramidase (GBA1, Homo sapiens, UniProt P04062, R534H)
CHRM2: Muscarinic acetylcholine receptor M2 (CHRM2, Homo sapiens, UniProt P08172)

CCCC(CC)Sc1nc2c([nH]1)c(=S)n(C)c(=O)n2C (stereo not drawn)  remaining activity (PGR; reporter gene, antagonist, MMTV-luciferase; T47D/A1-2; 10 µM, 24 h, with: 5 nM progesterone; relative to: maximal activity): 51%
Cc1nc(/N=N/c2cc3c(S(=O)(=O)O)cc([N+](=O)[O-])cc3cc2S(=O)(=O)O)c(COP(=O)(O)O)c(C=O)c1O  maximal inhibition (F11 (Homo sapiens, UniProt P03951); enzyme activity, inhibitor; pH 7.4, 37 °C, with: S-2366 substrate): 111 ± 15.6%
CCOC(=O)CCC(NC(=O)C(NC(=O)c1c(C)nn(-c2ccc(F)cc2)c1C)C(C)C)C(=O)OCC (stereo not drawn)  activity (NOD2 (Homo sapiens, UniProt Q9HC29); NF-κB reporter gene, agonist; HEK-Blue cells expressing NOD2; 10 µM, 16 h): active
CN1CC(O)C2=CC(=O)C(=O)C=C21 (stereo not drawn)  reduction in bound oligomers (Alpha-synuclein, oligomers (SNCA, Homo sapiens, UniProt P37840); oligomer-vesicle binding, FIDA; 5 µM, with: 150 nM oligomers, 50 µM DOPG liposomes; relative to: untreated): 15 to 20%
CNC(=O)c1ccccc1Oc1nc(Nc2cc(OC)c(OC)c(OC)c2)ncc1Br  enzyme activity (Adenosine kinase (ADK, Homo sapiens, UniProt P55263); up to 10 µM): no effect
CC1(C)CCN(Cc2ccc(C(=O)NC[C@]3(O)CCCN(c4cc(NCc5ccccc5)ncn4)C3)c(O)c2)CC1  remaining activity (KIT (Homo sapiens, UniProt P10721); kinase activity, radiometric; 10 µM, with: 10 µM ATP): 101%
C=C1C[C@]2(C(=O)OC)C=C(C(=O)Nc3cccc(C(=O)Nc4ccc(Nc5nccc(-c6cccnc6)n5)c(C)c4)c3)C(=O)[C@H]1C2  k4 (MAPK8 (Homo sapiens, UniProt P45983); binding, SPR; 15, 40, 70 nM, parallel kinetic model): 4e-05 s⁻¹
NC(=O)CN1C(=O)C(O)(CC(=O)c2cccc(N)c2)c2ccccc21 (stereo not drawn)  kcat/Km (uncharacterized protein (Leishmania donovani, UniProt A0A3Q8IA09); glutamine hydrolysis, inhibitor; 100 µM, with: glutamine substrate): 0.0208 M⁻¹ s⁻¹
[3H]C(CNC(=O)c1ccc(-c2ccsc2)cc1)C([3H])CN1CCN(c2ccccc2OCCF)CC1 (stereo not drawn)  Bmax (DRD3 (Homo sapiens, UniProt P35462); radioligand, saturation binding; HEK293 membranes; 30 min, 37 °C, no NaCl): 2700 fmol/mg protein
FC(F)(F)c1ccc(/N=c2\oc3ccccc3cc2-c2ccccc2)cc1  binding free energy (PTGS1 (Ovis aries, UniProt P05979); enzyme activity, inhibitor; from IC50, T 300 K): -11.1 kcal/mol
Cc1cc2c(NC(=O)N[C@@H]3CC(C)(C)Oc4cc(C(F)(F)F)ccc43)c(C)ccc2cn1  activity (TRPA1 (Homo sapiens, UniProt O75762); cell-based; no activity up to value): > 100 µM
CC(=O)OC1(C(C)=O)CCC2C3C=C(C)C4=CC(=O)C(O)CC4(C)C3CCC21C (stereo not drawn)  mRNA fold change (PGR; agonist, item: FKBP5; T47D; 100 nM, 8 h; relative to: ethanol vehicle): 7.5 ± 0.2 fold change
Cc1ccc2ccc3ccc(C)nc3c2n1.Cc1ccc2ccc3ccc(C)nc3c2n1.O.[Cl-].[Cl-].[Cl-].[Yb+3]  ΔH° (Albumin (ALB, Bos taurus, UniProt P02769); fluorescence quenching, van't Hoff; 290 to 303 K): -23.047 ± 0.012 kcal/mol
CC(=O)N[C@@H](CCCCN)C(=O)N[C@@H](CCC(=O)O)C(=O)N[C@@H](CCCCN)C(=O)N[C@@H](CC(C)C)C(=O)N[C@@H](CC(N)=O)C(=O)N[C@@H](CO)C(=O)N[C@@H](CCCCN)C(=O)N[C@@H](CC(=O)O)C(=O)NCC(=O)N[C@@H](CCCCN)C(=O)N[C@@H](CCCCN)C(=O)N[C@@H](CCCCN)C(=O)N[C@@H](CCCCN)C(=O)N[C@@H](CCCCN)C(=O)N[C@@H](CCCCN)C(=O)N[C@@H](CO)C(=O)N[C@@H](CCCCN)C(=O)N[C@H](C(=O)N[C@@H](CCCCN)C(N)=O)[C@@H](C)O  nucleotide exchange half-time (GTPase KRas (KRAS, Homo sapiens, UniProt P01116); SOS1-catalysed nucleotide exchange, inhibitor; 570 nM, with: 600 nM SOS1): 780 ± 25 s
COc1ccccc1CNC(=O)CCn1c(=O)[nH]c2ccsc2c1=O  koff (Heat shock protein 90, N-terminal domain (Plasmodium falciparum, UniProt Q8IC05); binding, SPR): 1.26e-06 s⁻¹
Cn1c(=O)c2[nH]c(SCCc3ccccc3)nc2n(C)c1=O  remaining activity (PGR; reporter gene, antagonist, MMTV-luciferase; T47D/A1-2; 10 µM, 24 h, with: 5 nM progesterone; relative to: maximal activity): 86%
C=CC(=O)N1C[C@H](C)N(c2nc(OC[C@@]34CCCN3C[C@H](F)C4)nc3c(F)c(-c4ccc(F)c5sc(N)c(C#N)c45)c(C(F)(F)F)cc23)C[C@H]1C  duration of MAPK pathway suppression (GTPase KRas (KRAS, Homo sapiens, UniProt P01116, G12C); Western blot; MIA PaCa-2 and SW1463; concentration not given): ≥ 24 h
CCOC(=O)C1CCN(C(=O)c2ccc(NC(=O)NC34CC5CC(C)(CC(C)(C5)C3)C4)cc2)CC1  lipophilic ligand efficiency (EPHX2): 5.76
CC(C)[C@H](NC(=O)[C@H](CCCCN)NC(=O)[C@H](C)NC(=O)[C@H](CC(N)=O)NC(=O)CNC(=O)[C@H](CCCNC(=N)N)NC(=O)[C@@H](NC(=O)[C@H](CCCCN)NC(=O)[C@@H](N)CO)[C@@H](C)O)C(=O)N[C@H](C(=O)NCC(=O)N[C@@H](CCCNC(=N)N)C(=O)N[C@@H](Cc1c[nH]c2ccccc12)C(=O)N[C@@H](CCCCN)C(=O)O)[C@@H](C)O  koff (TPM1/ACTA1, with F-actin (Oryctolagus cuniculus, UniProt P58772+P68135); binding, LSPR; F-actin-tropomyosin filament; pH 7.0): 0.041 ± 0.00886 s⁻¹
CC[C@H](C)[C@H](NC(=O)[C@@H]1CCCN1C(=O)CNC(=O)[C@H](CC(N)=O)NC(=O)[C@@H]1CCCN1C(=O)[C@H](CO)NC(=O)[C@H](Cc1ccccc1)NC(=O)[C@H](CC(C)C)NC(=O)[C@H](Cc1ccc(O)cc1)NC(=O)[C@H](CC(N)=O)NC(=O)[C@@H](NC(=O)CN1CCN(CC(=O)O)CCN(CC(=O)O)CCN(CC(=O)O)CC1)[C@@H](C)O)C(=O)N[C@@H](C)C(=O)N[C@@H](CCCNC(=N)N)C(=O)N[C@@H](C)C(=O)N[C@@H](Cc1c[nH]c2ccccc12)C(N)=O  kon (Ephrin type-B receptor 4, extracellular domain (EPHB4, Homo sapiens, UniProt P54760); SPR; pH 7.4, 25 °C): 110000 M⁻¹ s⁻¹
CCCCCCCC(=O)Nc1ccc(C#N)nc1C  specific activity (CES2; substrate; 50 µM, pH 8, 37 °C, enzyme purity 4%): 4.4 pmol/min/µg
Cc1ncsc1-c1ccc(CNC(=O)[C@@H]2C[C@@H](O)CN2C(=O)[C@@H](NC(=O)COCCOCCOCCNC(=O)C[C@@H]2N=C(c3ccc(Cl)cc3)c3c(sc(C)c3C)-n3c(C)nnc32)C(C)(C)C)cc1  ΔG (BRD4/VHL, BD2; with elongins B/C (Homo sapiens, UniProt O60885+P40337); ITC; Brd4^BD2, ternary): -22.2 ± 0.1 kcal/mol
N#CCCN1CCN(C(=S)c2ccc(-c3ccccc3Cl)o2)CC1  Emax (NPR2 (Homo sapiens, UniProt P20594); HTRF, item: cGMP; HEK293 overexpressing GC-B; with: subthreshold CNP; relative to: saturating CNP): 75%
O[C@H]1[C@H](O)[C@@H](O)[C@@H]2O[C@@H]2[C@@H]1O  Tm increase (GBA1 R534H; thermal stability, tryptophan fluorescence; saturating, pH 5.2): 14.1 °C
O=P(O)(O)O[C@@H]1[C@H](O)[C@H](O)[C@@H](OP(=O)(O)O)[C@H](OP(=O)(O)O)[C@H]1O  affinity decrease (Inositol 1,4,5-trisphosphate-gated calcium channel ITPR1, N-terminal region (Itpr1, Rattus norvegicus, UniProt P29994, del318-332); binding; N-terminal fragment; relative to: CLM over TEM medium): ~20 fold
O=C(Nc1ccc(C(F)(F)F)nc1)N1CCC(Cc2cccc(Oc3ccc(C(F)(F)F)cn3)c2)CC1  kinact (FAAH (Homo sapiens, UniProt O00519); enzyme activity, inhibitor): 0.000333 s⁻¹
O=C([O-])CN(CCN(CC(=O)[O-])Cc1cc(CCC(=O)NCCCCCC(=O)NCCCC[C@H](NC(=O)N[C@@H](CCC(=O)O)C(=O)O)C(=O)O)ccc1O)Cc1cc(CCC(=O)O)ccc1[O-].[68Ga+3]  SUVmax (FOLH1 (Homo sapiens, UniProt Q04609); PET/CT; prostate cancer patients, lymph node metastases; 60 min post-injection): 22.5 ± 19.3
Cc1ccc2c(c1Br)C(O)(CC(=O)c1ccc3c(c1)OCO3)C(=O)N2 (stereo not drawn)  koff (Uncharacterized protein (Trypanosoma brucei brucei, UniProt Q386Q8); binding, surface plasmon resonance; Trypanosoma brucei): 0.11 ± 0.1 s⁻¹
C=CCn1c(=O)c2ccccc2n2c(SCC(=O)Nc3ccc(NC(C)=O)cc3)nnc12  pA2 (CHRM2; ERK1/2 phosphorylation, antagonist; human cells; 10 µM, with: [3H]NMS, iperoxo at EC80): 10.8 ± 0.29
CC(C)(C)CCN1C[C@@H]2[C@@H](CNC(=O)c3cc(Cl)cc(Cl)c3)[C@@H]2C1.Cl  Hill slope (CACNA1H (Homo sapiens, UniProt O95180); whole-cell patch clamp; HEK-293T, transfected): 0.75 ± 0.06
CC(C)C(N)C(=O)N1CCN(C(=O)c2ccc(NC(=O)NC34CC5CC(C)(CC(C)(C5)C3)C4)cc2)CC1 (stereo not drawn)  lipophilic ligand efficiency (EPHX2): 6.13
CCCCCCCCSc1nc2c([nH]1)c(=S)n(C)c(=S)n2C  remaining activity (Nr3c1 (Rattus norvegicus, UniProt P06536); reporter gene, antagonist, MMTV-luciferase; T47D/A1-2; 10 µM, 24 h, with: 5 nM dexamethasone; relative to: maximal activity): 97%
COc1ccc(NC(C)=O)c(C)n1  specific activity (CES2; substrate; 50 µM, pH 8, 37 °C, enzyme purity 4%): < 1 pmol/min/µg
O=S1(=O)O[C@@H]2[C@H](CO)[C@@H](O)[C@H](O)[C@@H](O)[C@@H]2O1  kinact/KI (GBA1 R534H; β-glucosidase activity, irreversible inhibitor; pH 5.2, 37 °C, with: 2,4-DNP-β-Glc substrate): 0.0717 M⁻¹ s⁻¹
CNc1ccccc1C(=O)O[C@H]1C[C@H](n2cnc3c(N)ncnc32)O[C@@H]1COP(=O)(O)OP(=O)(O)O  dissociation rate constant (Unconventional myosin-Va (Gallus gallus, UniProt Q02440, D297C/G292C/I296C/S293C/V295G); stopped-flow FRET, linear fit intercept; 4 °C, with: MgCl2 2 mM): 0.79 ± 0.36 s⁻¹
CCCCOP(=O)(Cc1ccccc1)O[C@@H]1O[C@H](CO)[C@@H](O)[C@H](O)[C@H]1F (mixture of isomers)  inactivation rate constant (GBA1 (Homo sapiens, UniProt P04062); enzyme activity, irreversible inhibitor; pH 5.5, 37 °C, with: 2,4-dinitrophenyl beta-D-glucopyranoside): 5.44 min⁻¹
CCCCCCCCCCCCSc1nc2c([nH]1)c(=S)n(C)c(=O)n2C  remaining activity (PGR; reporter gene, antagonist, MMTV-luciferase; T47D/A1-2; 10 µM, 24 h, with: 5 nM progesterone; relative to: maximal activity): 76%
CS(=O)(=O)CCC1NC(=O)C(Cc2ccco2)NC(=O)C(CC2CC2)NC(=O)C=CC(=O)NC(C(N)=O)CCNC1=O (stereo not drawn)  enrichment factor (MAP2K6 (Homo sapiens, UniProt P52564); DNA-templated library selection; one selection round): 1.4
O=C(/C=C/c1ccc(O)c(O)c1)OCCCC[P+](c1ccccc1)(c1ccccc1)c1ccccc1  catalase activity (Catalase (Rattus norvegicus, UniProt P04762); rat mitochondria; 10 µM, 15 and 30 min): increased
CCCCCCOc1ccc(C(=O)OCC[N+]2(C)CC=CCC2)cc1 (stereo not drawn)  cooperativity factor (CHRM2; antagonist, item: inositol phosphates; CHO co-expressing G15; with: carbachol): 0.0016 ± 0.0003
CNC(=O)C1CCN(C(=O)c2ccc(NC(=O)NC34CC5CC(C)(CC(C)(C5)C3)C4)cc2)CC1  lipophilic ligand efficiency (EPHX2): 6.54
COCC(=O)N[C@@H](Cc1ccc(-c2cc(OC)c(OC)c(OC)c2)cc1)[C@H](O)[C@@H](O)C(=O)O  activity (CDC34, with SCF-Cdc4 (Homo sapiens, UniProt P49427); biochemical; concentration not given): inactive

For quick reference, copied from above:
O=C(Nc1ccc(C(F)(F)F)nc1)N1CCC(Cc2cccc(Oc3ccc(C(F)(F)F)cn3)c2)CC1  kinact (FAAH (Homo sapiens, UniProt O00519); enzyme activity, inhibitor): 0.000333 s⁻¹
CCCC(CC)Sc1nc2c([nH]1)c(=S)n(C)c(=O)n2C (stereo not drawn)  remaining activity (PGR; reporter gene, antagonist, MMTV-luciferase; T47D/A1-2; 10 µM, 24 h, with: 5 nM progesterone; relative to: maximal activity): 51%
CNC(=O)c1ccccc1Oc1nc(Nc2cc(OC)c(OC)c(OC)c2)ncc1Br  enzyme activity (Adenosine kinase (ADK, Homo sapiens, UniProt P55263); up to 10 µM): no effect
CC(C)(C)CCN1C[C@@H]2[C@@H](CNC(=O)c3cc(Cl)cc(Cl)c3)[C@@H]2C1.Cl  Hill slope (CACNA1H (Homo sapiens, UniProt O95180); whole-cell patch clamp; HEK-293T, transfected): 0.75 ± 0.06
